Measured values collected from several papers.
Each line is one published result; not all experiments were run side by side. Numbers after ± are the reported error. Converted amounts (≈) assume the structure as drawn.

Compound	organism	test	system	setting	scale	measurement	result
Nc1ccn(C[C@@H](CO)OCP(=O)(O)OCCCS(=O)(=O)CCCCCCCCCCCCCC2CCC2)c(=O)n1	human adenovirus 5	cytopathic effect	Adenoid 75		baseline: CC50 over EC50	selectivity index	74
CN1CC(=O)N=C1N.C[C@H](CCC(=O)O)[C@H]1CC[C@H]2[C@@H]3CC[C@@H]4C[C@H](O)CC[C@]4(C)[C@H]3C[C@H](O)[C@]12C	Candida albicans		TISTR 5554	1 mg per disc, 18 to 24 h, 37 °C, 6 mm disc		inhibition zone	inactive
CC[C@H](C)[C@H](NC(=O)[C@@H](NC(=O)CN)C(C)C)C(=O)N[C@@H](Cc1ccccc1)C(=O)N[C@@H](CC(N)=O)C(=O)N[C@@H](C)C(=O)N[C@@H](CC(C)C)C(=O)N[C@@H](CCCCN)C(=O)NCC(=O)N[C@H](C(=O)N[C@@H](C)C(=O)N[C@@H](CCCCN)C(=O)N[C@H](C(=O)N[C@H](C(=O)N[C@@H](C)C(=O)N[C@@H](C)C(=O)N[C@@H](CCC(N)=O)C(=O)N[C@@H](CC(C)C)C(=O)N[C@@H](CC(C)C)C(=O)N[C@@H](CCCCN)C(=O)N[C@@H](CCCCN)C(=O)N[C@@H](C)C(=O)N[C@@H](CCCNC(=N)N)C(=O)N[C@H]1CSSC[C@@H](C(=O)O)NC(=O)[C@H](CO)NC(=O)[C@H](CCCCN)NC(=O)[C@H](CC(=O)O)NC(=O)[C@H](CC(C)C)NC(=O)[C@H](CCCCN)NC1=O)C(C)C)[C@@H](C)O)C(C)C	Staphylococcus aureus		NCTC 10788, Mueller-Hinton broth	together with: KCl 4.5 mM		MIC	2 µM
CC[C@H](C)[C@H](NC(=O)[C@H](CCCCN)NC(=O)[C@H](CCCCN)NC(=O)[C@H](CC(C)C)NC(=O)[C@H](CCCCN)NC(=O)[C@H](CCC(=O)O)NC(=O)[C@H](CCCCN)NC(=O)[C@@H](NC(=O)[C@H](CCCCN)NC(=O)[C@H](CC(N)=O)NC(=O)[C@H](CCCNC(=N)N)NC(=O)[C@H](Cc1ccccc1)NC(=O)[C@H](CCCCN)NC(=O)[C@H](CCCNC(=N)N)NC(=O)[C@H](CC(C)C)NC(=O)[C@H](CCCNC(=N)N)NC(=O)[C@H](CCCCN)NC(=O)[C@H](CCCNC(=N)N)NC(=O)[C@H](CC(C)C)NC(=O)[C@@H](N)CCCNC(=N)N)[C@@H](C)CC)C(=O)NCC(=O)N[C@@H](CCC(N)=O)C(=O)N[C@@H](CCCCN)C(=O)N[C@H](C(=O)N[C@@H](CCC(N)=O)C(=O)NCC(=O)N[C@@H](Cc1ccccc1)C(=O)N[C@H](C(=O)N1CCC[C@H]1C(=O)N[C@@H](CCCCN)C(=O)N[C@@H](CC(C)C)C(=O)N[C@@H](CCC(N)=O)C(=O)N1CCC[C@H]1C(=O)N[C@@H](CO)C(=O)N[C@@H](CCCCN)C(=O)N[C@@H](CCC(N)=O)C(=O)N[C@@H](CO)C(=O)O)C(C)C)[C@@H](C)CC	Salmonella	inhibition zone	DZ.3G	LB agar, overnight		lethal concentration	2.17 µM
O=C1C=C(N(Cc2ccc(Cl)nc2)CC(F)F)CO1	Myzus persicae	leaf-dip bioassay		72 h, adults	baseline: LC50 over susceptible strain	resistance ratio	2
CC[C@H](C)[C@H](NC(=O)[C@H](CCCCN)NC(=O)[C@H](CCCCN)NC(=O)[C@H](CC(C)C)NC(=O)[C@H](CCCCN)NC(=O)[C@H](CCC(=O)O)NC(=O)[C@H](CCCCN)NC(=O)[C@@H](NC(=O)[C@H](CCCCN)NC(=O)[C@H](CC(N)=O)NC(=O)[C@H](CCCNC(=N)N)NC(=O)[C@H](Cc1ccccc1)NC(=O)[C@H](CCCCN)NC(=O)[C@H](CCCNC(=N)N)NC(=O)[C@H](CC(C)C)NC(=O)[C@H](CCCNC(=N)N)NC(=O)[C@H](CCCCN)NC(=O)[C@H](CCCNC(=N)N)NC(=O)[C@H](CC(C)C)NC(=O)[C@@H](N)CC(C)C)[C@@H](C)CC)C(=O)NCC(=O)N[C@@H](CCC(N)=O)C(=O)N[C@@H](CCCCN)C(=O)N[C@H](C(=O)N[C@@H](CCC(N)=O)C(=O)NCC(=O)N[C@@H](Cc1ccccc1)C(=O)N[C@H](C(=O)N1CCC[C@H]1C(=O)N[C@@H](CCCCN)C(=O)N[C@@H](CC(C)C)C(=O)N[C@H](C(=O)N1CCC[C@H]1C(=O)N[C@@H](CCCNC(=N)N)C(=O)N[C@H](C(=O)N[C@@H](CCC(=O)O)C(=O)N[C@@H](CO)C(=O)O)[C@@H](C)O)C(C)C)C(C)C)[C@@H](C)CC	Micrococcus luteus	inhibition zone	CGMCC 1.029			lethal concentration	1.18 µM
c1ccc(CCNC2CCCc3c2[nH]c2ccc(C4CCCCC4)cc32)cc1 (centres unmarked)	Staphylococcus aureus	broth microdilution	ATCC 25923, THY medium			MIC	5 µg/mL
CN(C)CCNC(=O)/C=C/[C@H](Cc1ccccc1)Nc1ccnc2cc(Cl)ccc12	Plasmodium berghei		NAT atovaquone-resistant, ICR mouse infected	10 mg/kg, 2 days post infection		body weight	27.3 ± 1.64 g
[O-][N+]1=C(c2ccccc2)C2=NCCCN2c2ncccc21	Fusobacterium nucleatum	microbial growth	ATCC25586			MIC	0.125 µg/mL
O.O=[N+]([O-])[O-].O=c1cc[nH]c(=S)[nH]1.[Ag+].c1ccc(P(c2ccccc2)c2ccccc2)cc1.c1ccc(P(c2ccccc2)c2ccccc2)cc1	Candida albicans		MTCC 227, DMSO	0.1 mL of 50 mg/mL in 8 mm well, 18 to 24 h		inhibition zone diameter	20 mm
COc1ccc(N2C(=O)C=CC2=O)cc1	Candida albicans	qRT-PCR, refers to: HWP1		1 µg/mL, 12 h		mRNA level	decreased
Cc1ccc(COP(=O)(O)Oc2c3c(c(OP(=O)(O)OCc4ccc(C)cc4)c4c2C2CC4c4cc5c(cc42)C2CC5c4ccccc42)C2CC3c3cc4c(cc32)C2CC4c3ccccc32)cc1	measles virus	viral infection, flow cytometry	A549, vaccine strain GFP	2 days, virus pre-incubated 30 min 37 °C		IC50	2100 nM
CCCCCCCCCCCCCC(=O)N[C@@H](CC(C)C)C(=O)N[C@@H](CCCCN)C(=O)N[C@@H](CCCCN)C(N)=O	Staphylococcus epidermidis and Staphylococcus aureus		clinical strains			MIC range	1.56 to 3.1 µM (≈ 0.931 to 1.85 µg/mL)
COc1ccc(Br)cc1/C=N/NC(=O)Cn1ccc(=O)c2ccccc21	Alternaria solani	microbial growth		50 µg/mL		inhibition	30.8%
CC[C@@H](C)[C@@H](NC(=O)[C@@H](C)NC(=O)[C@@H](CCCCN)NC(=O)[C@@H](CC(C)C)NC(=O)[C@@H](C)NC(=O)[C@H](NC(=O)[C@@H](Cc1c[nH]cn1)NC(=O)[C@@H](CC(C)C)NC(=O)[C@H](NC(=O)[C@H](NC(=O)[C@@H](CCCCN)NC(=O)[C@@H](CCCCN)NC(=O)[C@@H](C)NC(=O)[C@@H](CO)NC(=O)[C@@H](CCCCN)NC(=O)[C@@H](Cc1ccccc1)NC(=O)[C@H](NC(=O)[C@@H](CCCCN)NC(=O)[C@@H](CC(C)C)NC(=O)[C@@H](Cc1ccccc1)NC(=O)[C@@H](CO)NC(=O)[C@@H](CCCCN)NC(=O)[C@@H](Cc1c[nH]c2ccccc12)NC(=O)[C@@H](CCCCN)NC(C)=O)[C@H](C)O)[C@H](C)O)C(C)C)[C@H](C)O)C(=O)N[C@H](CO)C(=O)N[C@H](CO)C(N)=O	Rhizopus oryzae		AZN 8892	48 h, 30 °C		MIC90	25 µg/mL (≈ 8.36 µM)
CN[C@@H]1[C@H](O)[C@H](NC)[C@H]2O[C@]3(O)[C@H](O[C@@H]2[C@H]1O)O[C@H](C)C[C@]3(O)CNCc1ccc(F)cc1	Haemophilus influenzae		ATCC 49247	40 µg per disc		inhibition zone diameter	0 mm
CC[C@H](C)[C@H](NC(=O)[C@H](CCCCN)NC(=O)[C@H](CCCCN)NC(=O)[C@H](CC(C)C)NC(=O)[C@H](CCCCN)NC(=O)[C@H](CCC(=O)O)NC(=O)[C@H](CCCCN)NC(=O)[C@@H](NC(=O)[C@H](CCCCN)NC(=O)[C@H](CC(N)=O)NC(=O)[C@H](CCCNC(=N)N)NC(=O)[C@H](Cc1ccccc1)NC(=O)[C@H](CCCCN)NC(=O)[C@H](CCCNC(=N)N)NC(=O)[C@H](CC(C)C)NC(=O)[C@H](CCCNC(=N)N)NC(=O)[C@H](CCCCN)NC(=O)[C@H](CCCNC(=N)N)NC(=O)[C@H](CC(C)C)NC(=O)CN)[C@@H](C)CC)C(=O)NCC(=O)N[C@@H](CCC(N)=O)C(=O)N[C@@H](CCCCN)C(=O)N[C@H](C(=O)N[C@@H](CCC(N)=O)C(=O)NCC(=O)N[C@@H](Cc1ccccc1)C(=O)N[C@H](C(=O)N1CCC[C@H]1C(=O)N[C@@H](CCCCN)C(=O)N[C@@H](CC(C)C)C(=O)N[C@@H](C)C(=O)N1CCC[C@H]1C(=O)N[C@@H](CCCNC(=N)N)C(=O)N[C@H](C(=O)N[C@@H](CC(=O)O)C(=O)N[C@@H](Cc1ccc(O)cc1)C(=O)O)[C@@H](C)O)C(C)C)[C@@H](C)CC	Bacillus subtilis	inhibition zone	CGMCC 1.243			lethal concentration	1.1 µM
COc1ccc(-c2nc(C(=O)NCc3ccc(C)cc3)c(O)c3ncccc23)c(OC)c1	Human betaherpesvirus 5	viral replication, inhibitor	HFF	10 µM		inhibition	100%
COc1ccc2c(c1)/C(=N\Nc1nnc3n1N=C(c1ccccc1)CS3)C(=O)N2	Gallus gallus	angiogenesis, HET-CAM	chorioallantoic membrane	40 µM, day 11	baseline: DMSO control	capillary number reduction	56%
CC[C@H](C)[C@H](NC(=O)[C@H](CCCCN)NC(=O)[C@H](CCCCN)NC(=O)[C@H](CC(C)C)NC(=O)[C@H](CCCCN)NC(=O)[C@H](CCC(=O)O)NC(=O)[C@H](CCCCN)NC(=O)[C@@H](NC(=O)[C@H](CCCCN)NC(=O)[C@H](CC(N)=O)NC(=O)[C@H](CCCNC(=N)N)NC(=O)[C@H](Cc1ccccc1)NC(=O)[C@H](CCCCN)NC(=O)[C@H](CCCNC(=N)N)NC(=O)[C@H](CC(C)C)NC(=O)[C@H](CCCNC(=N)N)NC(=O)[C@H](CCCCN)NC(=O)[C@H](CCCNC(=N)N)NC(=O)[C@@H](N)CC(C)C)[C@@H](C)CC)C(=O)NCC(=O)N[C@@H](CCC(N)=O)C(=O)N[C@@H](CCCCN)C(=O)N[C@H](C(=O)N[C@@H](CCC(N)=O)C(=O)NCC(=O)N[C@@H](Cc1ccccc1)C(=O)N[C@H](C(=O)N1CCC[C@H]1C(=O)N[C@@H](CCCCN)C(=O)N[C@@H](CC(C)C)C(=O)O)C(C)C)[C@@H](C)CC	Streptomyces griseus	inhibition zone	NBRC 13350	37 °C, LB agar, 154 mM NaCl		lethal concentration	8.84 µM
